Experimental data of several laboratories.
Each line is one published result; not all experiments were run side by side. ± gives the spread as reported.

COc1ccc([C@@H](O)c2cc(-c3ncnc4cc(N5CCOCC5)ccc34)c(F)cc2Cl)nn1 — half-life (human, plasma; oral, 300 mg twice daily, single dose, geometric mean): 314 min
Cc1nc(Nc2ncc(C(=O)Nc3c(C)cccc3Cl)s2)cc(N2CCN(CCO)CC2)n1 — half-life (human patients, plasma; oral, 85 mg/m^2, day 8): 276 ± 48 min
CC(=O)c1cc(C(=O)N[C@@H](C)Cn2ccc(-c3ccc(C#N)c(Cl)c3)n2)[nH]n1 — half-life (human, fasted, plasma; oral, 300 mg darolutamide tablet, geometric mean): 1010 min
Nc1ccn([C@@H]2O[C@H](CO)[C@@H](O)C2(F)F)c(=O)n1 — half-life (HPLC-UV; human, plasma; intravenous, 800 mg/m^2, mean, after paricalcitol): 273 min
CNC(=O)n1ccc2cc(Oc3ccnc(NC(=O)c4ccc(C5CCN(CCO)CC5)cc4)c3)c(OCCOC)cc21 — half-life (healthy human, plasma; oral, 35 mg, geometric mean, together with: rabeprazole 20 mg): 1730 min
CC(C)(Sc1ccncc1-c1ccc(C#N)c2ccccc12)C(=O)O — half-life (human; oral, 10 mg once daily, together with: febuxostat 0 mg): 1220 min
CC(C)(C)OC[C@@H]1C(=O)NCCN1C(=O)C[C@H](N)Cc1cc(F)c(F)cc1F — half-life (human, plasma; oral, steady state, EP treatment): 1330 ± 245 min
O=C(COc1ccc(Cl)cc1)NC12CC(c3nnc([C@H]4C[C@@H](OC(F)(F)F)C4)o3)(C1)C2 — half-life (healthy human volunteers fasted, plasma; oral, 45 mg single dose, arithmetic mean): 1860 min
NCCCS(=O)(=O)O — half-life (human, plasma; oral, 256.5 mg once daily, day 14, capsule, fasted, dosed days 8-14): 2780 min
C=CC(=O)NC1CCN(c2ncc3ncnc(Nc4ccc(Oc5ccc6c(c5)ncn6C)c(C)c4)c3n2)CC1 — half-life (human, male, plasma; oral, 240 mg single dose, fed, geometric mean): 1700 min
CCN1CCN(Cc2ccc(Nc3ncc(F)c(-c4cc(F)c5nc6n(c5c4)[C@H](C)CCC6)n3)nc2)CC1 — half-life (human, plasma; 300 mg single dose, mean): 3070 min
COc1ncc(-c2nc3c(n2C(C)C)[C@H](c2ccc(Cl)cc2)N(c2cc(Cl)cn(C)c2=O)C3=O)c(OC)n1 — half-life (LC-MS/MS, noncompartmental; human, plasma; oral, 45 mg, low-dose, median): 438 min
COCCOc1cnc2ccn([C@H](C)c3nnc4c(F)cc(-c5cnn(C)c5)cn34)c(=O)c2c1 — half-life (human patients, dose escalation, plasma; oral, 300 mg once daily, day 1): 420 min
COc1ccc(F)cc1C(=O)NCc1ccc(-c2nn([C@@H](C)C(F)(F)F)c(N)c2C(N)=O)cc1 — half-life (human patients, blood; oral, dose not given, once daily dosing): ~1200 min
COC(=O)C(Cc1cccc(OC)c1I)NC(=O)CNCc1ccccc1 (centres unmarked) — half-life (human; 1 µM): > 120 min
CN(C)N=Nc1[nH]cnc1C(N)=O — half-life (human patients, plasma; intravenous, 1000 mg/m^2 over 1 h, cycle 2 day 1, staggered with twice-weekly co-drug): 142 min
CCN1CCN(Cc2ccc(Nc3ncc(F)c(-c4cc(F)c5nc(C)n(C(C)C)c5c4)n3)nc2)CC1 — half-life (healthy human, fasted; oral, 150 mg, 3 x 50 mg capsules): 1580 min
Fc1ccc([C@@H]2CCNC[C@H]2COc2ccc3c(c2)OCO3)cc1 — half-life (human, all CYP2D6 genotypes; oral, 20 mg, steady state, geometric mean): 1200 min
CC#CC(=O)N1CC[C@@H](n2c(=O)n(-c3ccc(Oc4ccccc4)cc3)c3c(N)ncnc32)C1 — half-life (human, fasting, plasma; oral, 480 mg once daily, cycle 1 day 28): ~234 min
C=CC(=O)N(C)CCOc1c(N)ncnc1-c1cc(F)cc(NC(=O)c2ccc(C3CC3)cc2F)c1C — half-life (human, whole blood; oral, 600 mg, single ascending dose, median): 846 min
O=C(O)CCC(=O)O.[2H]C([2H])([2H])Oc1cc(C)c2[nH]ccc2c1CN1CC[C@@H](C2CC2)C[C@H]1c1ccc(C(=O)O)cc1 — half-life (LC-MS/MS, mean; human, plasma; 400 mg, single dose, fasting): 2000 min
CO[C@@H]1[C@H](OC(=O)N2CC(CCN3CCOCC3)C2)CC[C@]2(CO2)[C@H]1[C@@]1(C)O[C@@H]1CC=C(C)C — half-life (humans, plasma; subcutaneous, 1.8 mg twice weekly, fifth dose): 51 ± 11.4 min
CC(C)C[C@H](NC(=O)[C@H](CC(C)C)NC(=O)[C@H](Cc1c[nH]c2ccccc12)NC(=O)[C@H](CCC(=O)O)NC(=O)[C@@H](NC(=O)[C@H](Cc1ccccc1)NC(=O)[C@H](CCC(=O)O)NC(=O)[C@H](CCCCNC(=O)COCCOCCNC(=O)COCCOCCNC(=O)CC[C@H](NC(=O)CCCCCCCCCCCCCCCCCCC(=O)O)C(=O)O)NC(=O)[C@H](C)NC(=O)[C@H](CCCCN)NC(=O)[C@H](CCCCN)NC(=O)[C@H](CCC(=O)O)NC(=O)[C@H](CC(=O)O)NC(=O)[C@H](CC(C)C)NC(=O)[C@H](Cc1ccc(O)cc1)NC(=O)[C@H](CCCCN)NC(=O)[C@H](CO)NC(=O)[C@H](Cc1ccc(O)cc1)NC(=O)[C@H](CC(=O)O)NC(=O)[C@H](CO)NC(=O)[C@@H](NC(=O)[C@H](Cc1ccccc1)NC(=O)[C@@H](NC(=O)CNC(=O)[C@H](CCC(N)=O)NC(=O)C(C)(C)NC(=O)[C@@H](N)Cc1c[nH]cn1)[C@@H](C)O)[C@@H](C)O)C(C)C)C(=O)N[C@@H](CCC(=O)O)C(=O)NCC(=O)NCC(=O)N1CCC[C@H]1C(=O)N[C@@H](CO)C(=O)N[C@@H](CO)C(=O)NCC(N)=O — half-life (human; subcutaneous, 16 mg weekly, week 20): ~11500 min
O=C(O)C[C@H](O)C[C@H](O)/C=C/c1c(C2CC2)nc2ccccc2c1-c1ccc(F)cc1 — half-life (OATP1B1/1B3 humanized mouse, plasma; oral, 5 mg/kg, together with: rifampin 20 mg/kg oral): 168 min
COc1cc(C(=O)NC2CCN(C)CC2)c(F)cc1Nc1ncc(C(F)(F)F)c(Oc2cccc3c2C(=O)N(C)C3)n1 — half-life (human patients, plasma; oral, 10 mg single dose, geometric mean): 1130 min
CO[C@H]1C[C@@H]2CC[C@@H](C)[C@@](O)(O2)C(=O)C(=O)N2CCCC[C@H]2C(=O)O[C@H]([C@H](C)C[C@@H]2CC[C@@H](OC(=O)NCCOCCOCCOCCOCCOCCOCCOCCOCCC(=O)N3CCc4cc(Cn5nc(-c6ccc7oc(N)nc7c6)c6c(N)ncnc65)ccc4C3)[C@H](OC)C2)C[C@@H](O)[C@H](C)/C=C(\C)[C@@H](O)[C@@H](OC)C(=O)[C@H](C)C[C@H](C)/C=C/C=C/C=C/1C — half-life (human, plasma; intravenous, 8 mg, cycle 1 day 15, arithmetic mean): 402 min
C#C[C@]1(COP(=O)(O)OP(=O)(O)O)O[C@@H](n2cnc3c(N)nc(F)nc32)C[C@@H]1O — half-life (item: islatravir triphosphate; human, PBMC; oral, 200 mg single dose): 9300 min
CC(C)c1nc(N(C)S(C)(=O)=O)nc(-c2ccc(F)cc2)c1/C=C/[C@@H](O)C[C@@H](O)CC(=O)O — half-life (human, plasma; oral, 20 mg, day 2, geometric mean, single agent): 879 min
Cc1nc(-c2ccc(OCC(C)C)c(C#N)c2)sc1C(=O)O — half-life (human, plasma; oral, 20 mg once daily, together with: verinurad 10 mg): 434 min
CC(C)[C@H](N)C(=O)NCCCS(=O)(=O)O — half-life (human, plasma; oral, 171 mg once daily, day 1, fasted, capsule): 55.1 min
N#Cc1cc(NC(=O)[C@H]2c3ccccc3C(=O)N(CC(F)(F)F)[C@@H]2c2cccnc2)ccc1F — half-life (human, plasma; oral, 150 mg, median): 1040 min
CCn1c(=O)c(-c2cc(NC(=O)Nc3ccccc3)c(F)cc2Br)cc2cnc(NC)cc21 — half-life (human, plasma; oral, 150 mg once daily, steady state): 540 min
Cc1cc(OCCOCCC(F)(F)P(=O)(O)O)ccc1CCc1cnc2c(N)nc3cc(CCC(=O)O)ccc3c2c1 — half-life (human, serum; intratumoral, 400 µg every 2 weeks, cycle 2 day 15): 1630 min
C[C@H](Oc1ccc(Br)cc1-c1ccon1)C(=O)O — half-life (healthy male humans, plasma; oral, 400 mg twice daily, day 1): 222 min
Cc1ccc(-c2cc(C(F)(F)F)nn2-c2ccc(S(N)(=O)=O)cc2)cc1 — half-life (human, plasma; oral): 552 ± 258 min
CC(C)(C)[C@@H]1NC(=O)O[C@@H]2CCC[C@H]2OC/C=C/C(F)(F)c2nc3ccccc3nc2O[C@@H]2C[C@@H](C(=O)N[C@]3(C(=O)NS(=O)(=O)C4(C)CC4)C[C@H]3C(F)F)N(C2)C1=O — half-life (healthy human subjects, plasma; oral, single dose alone): 349 min
CC1(COc2ccc3c(c2)ncn3-c2ccc3cccc(N4CCC(N)CC4)c3n2)COC1 — half-life (human patients, recurrent/progressive HGG or DIPG, serum; oral, 130 mg/m^2, day 28, median): 378 min
CC(C)c1nc(N(C)S(C)(=O)=O)nc(-c2ccc(F)cc2)c1/C=C/[C@@H](O)C[C@@H](O)CC(=O)O — half-life (healthy human subjects, plasma; oral, 10 mg, arithmetic mean, together with: fruquintinib 5 mg): 870 min
[H]/N=C(/N)c1ccc(NCc2nc3cc(C(=O)N(CCC(=O)O)c4ccccn4)ccc3n2C)cc1 — half-life (item: total dabigatran; human, plasma; oral, 75 mg dabigatran etexilate, given alone): 576 ± 99.6 min
CC1(C)CC[C@]2(NC(=O)C(C)(F)F)CC[C@]3(C)[C@H](C(=O)C=C4[C@@]5(C)C=C(C#N)C(=O)C(C)(C)[C@@H]5CC[C@]43C)[C@@H]2C1 — half-life (geometric mean; human, plasma; oral, 150 mg single dose, given alone): 5390 min
C[C@H]1[C@@H](O)O[C@@H]2O[C@@]3(C)CC[C@H]4[C@H](C)CC[C@@H]1[C@@]24OO3 — half-life (human, both sexes, plasma; oral, dose not given, non-fixed combination): 82.8 min
Cc1cc(C)c(CNC(=O)c2cc(Cl)c3c(c2C)O[C@@](C)([C@H]2CC[C@H](N(C)C)CC2)O3)c(=O)[nH]1 — half-life (healthy male human, plasma; oral, 25 mg, alone, before fluconazole): 1300 min
Cn1nnc2c(C(N)=O)ncn2c1=O — half-life (human patients, plasma; oral, 20 mg/m2, day 5, dose level DL3, median, together with: talazoparib 600 µg/m2): 96 min
CCOc1c([C@H](C)n2nc(C)c3c(N)ncnc32)cc(Cl)c(F)c1[C@@H]1CNC(=O)C1 — half-life (human patients, Hodgkin lymphoma, plasma; oral, 20 mg, day 15, monotherapy): 1010 min
CC(=O)c1c(C)c2cnc(Nc3ccc(N4CCNCC4)cn3)nc2n(C2CCCC2)c1=O — half-life (noncompartmental LC-MS/MS; human patients, plasma; oral, 75 mg, cycle 1 day 15, together with: neratinib 200 mg): 1380 min
Cn1cncc1-c1c(F)cncc1NC(=O)c1c(N)nn2cc(F)cnc12 — half-life (human patients, plasma; oral, 90 mg): 102 min
C#C[C@]1(CO)O[C@@H](n2cnc3c(N)nc(F)nc32)C[C@@H]1O — half-life (human, plasma; oral, 100 mg, single dose, geometric mean): 3530 min

Some of these lines once more:
Cc1cc(C)c(CNC(=O)c2cc(Cl)c3c(c2C)O[C@@](C)([C@H]2CC[C@H](N(C)C)CC2)O3)c(=O)[nH]1 — half-life (healthy male human, plasma; oral, 25 mg, alone, before fluconazole): 1300 min
Cn1nnc2c(C(N)=O)ncn2c1=O — half-life (human patients, plasma; oral, 20 mg/m2, day 5, dose level DL3, median, together with: talazoparib 600 µg/m2): 96 min
CCOc1c([C@H](C)n2nc(C)c3c(N)ncnc32)cc(Cl)c(F)c1[C@@H]1CNC(=O)C1 — half-life (human patients, Hodgkin lymphoma, plasma; oral, 20 mg, day 15, monotherapy): 1010 min
CC(=O)c1c(C)c2cnc(Nc3ccc(N4CCNCC4)cn3)nc2n(C2CCCC2)c1=O — half-life (noncompartmental LC-MS/MS; human patients, plasma; oral, 75 mg, cycle 1 day 15, together with: neratinib 200 mg): 1380 min
